Measured values pooled from the literature.
A part holds a random share of what one study measured.

Series 1
Target: RNA binding protein fox-1 homolog 2, RRM domain, GST-SBP tag (RBFOX2, Homo sapiens, UniProt O43251-10, residues 100-194)
Method: RNA Bind-n-Seq
Form: RNA
Sample: in vitro
Concentration: 365 nM
Notes: natural RNA segment, single round, ends assumed
Reference: no-protein control
Reading: higher = stronger binding
Sequence	RBNS enrichment (R)
GGGAGUUCUACAGUCCGACGAUCUUCAACAAGAGUAAAUAUUGUCACAACACUGAACCUCUGGCUAGAGGACAUAUUCACAGUGAACAUAACUGUAACAUAUAUGAAAGGCUUCUGGGACUUGAAAUCAAAUGUGGAAUUCUCGGGUGCCAA	0.368
GGGAGUUCUACAGUCCGACGAUCUUUUUACGCAGCCAUACACUUACUUUAAUCUAACUCAUUCUGUGGCUAGGAUUGAUAUAGGAAUCAACCUAUGUGAUUUGCUUUAGGAGAAAUUAAAAGGUAUAUUCUUAUGGAAUUCUCGGGUGCCAA	0.637
GGGAGUUCUACAGUCCGACGAUCAUGGAUAAAAUCAUUAAAGGGAAGCUGGUGCUGCCCCCCUACCUCACCCCGGAUGCCCGGGACCUUGCCAAAAAGUUUCUGAAGCGGAACCCCACUCAGCGAAUUGGGGGUGGAAUUCUCGGGUGCCAA	0.373
GGGAGUUCUACAGUCCGACGAUCUGGGCACUUCCCAGGCUCAAUGCUCAGCCAGAGUUUGCUGGUGGACCUCAGGAUUCGAAGUGUGCAACAGACGGAGUGCGCUUGCUGUUCAGGGCGGCCCCGUGCAGGAGUGGAAUUCUCGGGUGCCAA	0.785

Series 2
Target: Ras GTPase-activating protein-binding protein 1, RRM domain (G3BP1, Homo sapiens, UniProt Q13283)
UniProt Q13283, sequence (whole entry, looked up): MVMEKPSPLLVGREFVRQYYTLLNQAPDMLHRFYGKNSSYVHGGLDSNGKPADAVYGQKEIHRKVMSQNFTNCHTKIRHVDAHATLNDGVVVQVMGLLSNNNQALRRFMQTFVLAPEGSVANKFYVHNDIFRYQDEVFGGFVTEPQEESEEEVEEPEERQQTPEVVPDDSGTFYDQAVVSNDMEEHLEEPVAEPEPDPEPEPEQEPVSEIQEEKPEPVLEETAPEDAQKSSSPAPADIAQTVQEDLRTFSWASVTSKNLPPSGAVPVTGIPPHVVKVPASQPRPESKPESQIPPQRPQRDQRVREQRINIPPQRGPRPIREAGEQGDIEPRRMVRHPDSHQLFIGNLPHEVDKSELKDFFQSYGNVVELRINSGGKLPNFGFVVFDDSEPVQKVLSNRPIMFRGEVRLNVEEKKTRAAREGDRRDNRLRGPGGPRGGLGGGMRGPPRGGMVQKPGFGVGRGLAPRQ
Method: RNA Bind-n-Seq
Form: RNA
Sample: in vitro
Concentration: 1 µM
Notes: whole 134-nt RNA, ends assumed
Added: 150 mM KCl
Reference: input library
Reading: higher = stronger binding
Sequence	log2 enrichment
GGGAGUUCUACAGUCCGACGAUCUUCAAAGCGUUCGAAUGAGGAGACUGAUGACUAUGGGAAGGCGCAGGUAGCCAAAAGCAGCAGCAAGGAAUCCAGGUCAUCCAAGCUCCAUGGAAUUCUCGGGUGUCAAGG	-0.25
GGGAGUUCUACAGUCCGACGAUCUGUCAGUAUCAUACAUAACAGAGGAAUGCCUGAAGAAGCUGGACACAAAGCAGCAGACCAACACCCUGCUCAACCUGGUGUGGAGGGACUUGGAAUUCUCGGGUGUCAAGG	0.0916
GGGAGUUCUACAGUCCGACGAUCGUGCUACACAUCGUAUGUACCGAAUCGGGGAAAAAAAGGGGAAAAAAAGGGGUUUUUUUGGGGAAAGUAUUAUGUUACGCCGUUCGGAUCUGGAAUUCUCGGGUGUCAAGG	1.36
GGGAGUUCUACAGUCCGACGAUCUUCCAGGCUCAAGCACGGACAUCAGUGAGGACUGGGAGAAAGACUUUGACUUGGACAUGACUGAAGAGGAGGUGCAGAUGGCACUUUCCAUGGAAUUCUCGGGUGUCAAGG	-0.0633

Series 3
Target: Sal-like protein 4, full length isoform B (SALL4, Homo sapiens, UniProt Q9UJQ4-2, residues 1-616)
Method: universal PBM
Form: double-stranded DNA, one strand shown
Sample: in vitro
Concentration: not given
Notes: 8-mer, flanks averaged, mean of replicates
Reading: higher = stronger binding
Residues (chain): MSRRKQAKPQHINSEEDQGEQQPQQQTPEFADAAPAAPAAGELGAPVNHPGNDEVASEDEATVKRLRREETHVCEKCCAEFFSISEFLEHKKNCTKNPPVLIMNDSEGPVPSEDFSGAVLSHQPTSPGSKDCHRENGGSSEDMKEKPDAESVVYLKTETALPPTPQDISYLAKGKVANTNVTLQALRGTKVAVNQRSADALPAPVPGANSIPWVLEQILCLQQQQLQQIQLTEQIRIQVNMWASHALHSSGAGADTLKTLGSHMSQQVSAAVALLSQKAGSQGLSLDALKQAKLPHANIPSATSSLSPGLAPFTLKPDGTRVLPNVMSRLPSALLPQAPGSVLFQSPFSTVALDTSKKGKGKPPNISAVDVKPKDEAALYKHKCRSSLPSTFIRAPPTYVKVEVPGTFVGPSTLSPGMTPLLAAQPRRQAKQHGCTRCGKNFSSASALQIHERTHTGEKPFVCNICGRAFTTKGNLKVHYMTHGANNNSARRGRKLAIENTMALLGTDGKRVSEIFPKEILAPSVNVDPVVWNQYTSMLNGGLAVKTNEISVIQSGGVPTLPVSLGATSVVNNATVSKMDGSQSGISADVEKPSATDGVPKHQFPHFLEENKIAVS
Sequence	E-score
CGCTCCGC	-0.303
CCAACCTC	-0.0545
CTTACCTC	-0.16

Other studies, line by line
Substance	target	assay	system	setting	scale	endpoint	result
PhoQ, residues 284 288 289 292 302 303 AGHLVA	PhoP, residues 12 14 15 18 19 IQSYL (Escherichia coli, UniProt P23836)	Sort-seq, measured: YFP reporter	E. coli	PhoQ-PhoP variant library, added: 10 µM Mg2+	reference: high Mg2+ state, higher = stronger signaling	fold induction	9.18

Excerpt of the above (series 1):
Sequence	RBNS enrichment (R)
GGGAGUUCUACAGUCCGACGAUCUUUUUACGCAGCCAUACACUUACUUUAAUCUAACUCAUUCUGUGGCUAGGAUUGAUAUAGGAAUCAACCUAUGUGAUUUGCUUUAGGAGAAAUUAAAAGGUAUAUUCUUAUGGAAUUCUCGGGUGCCAA	0.637
